Literature values, collected from citations in different studies.
Lines come from different studies, so protocols differ. ± gives the spread as reported.

`CC1=C(C)C(=O)OC(C(C)(O)C2(O)CCC3(O)C4CC5OC56CC=CC(=O)C6(C)C4CCC32C)C1` (centres unmarked) has an IC50 of 620 nM (L5178Y; cell growth).
The EC50 of `Cc1cc2c(c(=O)o1)C=C1CC[C@H](C(C)Cn3cnc(N)c4ncnc3-4)C[C@@H]1O2` (some centres unmarked) is reported as 150 nM (MC65 Tet-Off; protection from amyloid beta toxicity).
`C[C@H](NC(=O)[C@H](Cc1c[nH]cn1)NC(=O)[C@H](CO)NC(=O)[C@@H](N)CC(=O)O)C(=O)N[C@@H](CCCCN)C(=O)N[C@@H](CCCNC(=N)N)C(=O)N[C@@H](Cc1c[nH]cn1)C(=O)N[C@@H](Cc1c[nH]cn1)C(=O)NCC(=O)N[C@@H](Cc1ccc(O)cc1)C(=O)N[C@@H](CCCCN)C(=O)N[C@@H](CCCNC(=N)N)C(=O)N[C@@H](CCCCN)C(=O)N[C@@H](Cc1ccccc1)C(=O)N[C@@H](Cc1c[nH]cn1)C(=O)N[C@@H](CCC(=O)O)C(=O)N[C@@H](CCCCN)C(=O)N[C@@H](Cc1c[nH]cn1)C(=O)N[C@@H](Cc1c[nH]cn1)C(=O)N[C@@H](CO)C(=O)N[C@@H](Cc1c[nH]cn1)C(=O)N[C@@H](CCCNC(=N)N)C(=O)NCC(=O)N[C@@H](Cc1ccc(O)cc1)C(=O)O` has an inhibition of 37% (human gingival fibroblasts; IL6 production; 3.3 µM, added: Porphyromonas gingivalis outer-membrane protein 10.0 µg/mL).
For `COc1ccc(S(=O)(=O)N(C)C)cc1N1CCN(C(=O)c2ccc(F)cc2C(F)(F)F)CC1`, the survival-promoting concentration was 0.1 to 1 µM (naive dopamine neurons).
The IC50 of `CCCCCCCC(=O)NCC(=O)N[C@@H](C)C(=O)N[C@@H](CC(C)C)C(=O)N[C@](C)(CC)C(=O)N[C@@H](C)C(=O)N[C@H](C(=O)N[C@H](CO)CC(C)C)[C@@H](C)CC` is reported as 4000 nM (HL-60; cell growth, MTT).
The GI50 of `CC(C)c1c(O)c(O)c2c(c1O)C(=O)C(O)=C1C(C)(C)CCCC12C` (centres unmarked) is reported as 3000 ± 200 nM (NCI-H460).
Under “cytotoxicity activity class”, `COc1ccccc1/C=C/[N+](=O)[O-]` is recorded as “active” (MOLM-13; concentration not given).
`C=CCc1cc(OC)c(OC)c(OC)c1OC` gave an IC50 of 193000 nM (MCF7; cell growth).
`CC(C)C[C@@H]1NC(=O)[C@H](C(C)C)NC(=O)[C@H](CO)NC(=O)CNC(=O)CNC(=O)[C@H](CCCNC(=N)N)NC(=O)[C@@H]2CCCN2C(=O)[C@@H](NC(=O)CC[C@H](NC(=O)c2ccc(N(C)Cc3cnc4nc(N)nc(N)c4n3)cc2)C(=O)O)C(C)(C)SSC[C@@H](C(=O)O)NC(=O)CNC(=O)[C@H]([C@@H](C)O)NC(=O)[C@H](C(C)C)NC1=O` gave a cytotoxicity of over 10 µM (KB; not toxic up to value).
For `CC1=C(C)C(=O)OC(C(C)(O)C2(O)CCC3(O)C4CC5OC56C(O)C=CC(=O)C6(C)C4CCC32C)C1` (centres unmarked), the IC50 was 1790 nM (MCF7; cell growth).
`Clc1ccccc1C(c1ccccc1)(c1ccccc1)n1cccn1`: “microglial activation and neurotoxicity” “inhibited” (microglia; inhibitor; concentration not given, added: amyloid-beta oligomers).
With `C#CCN[C@@H]1C=C[C@]2(O[C@H]([C@@H](CC)C(=O)[C@@H](C)[C@@H](O)[C@H](C)[C@@H]3O[C@@H]([C@@H](CC)C(=O)O)CC[C@@H]3C)[C@@H](C)C[C@H]2C)O[C@@]12CC[C@@](C)([C@H]1CC[C@](O)(CC)[C@H](C)O1)O2` the activity ratio was about 10 fold (breast cancer stem cells; reference: salinomycin).
With `CC(C)=CCC/C(C)=C/C[P+](c1ccccc1)(c1ccccc1)c1ccccc1` the GI50 was 720 nM (HCT-116; cell growth).
`CSC([S-])=NN=Cc1ccc(O)cc1[O-].[C-]#[O+].[Ru+2].c1ccc(P(c2ccccc2)c2ccccc2)cc1.c1ccc(P(c2ccccc2)c2ccccc2)cc1` has an apoptotic activity of 33.1 µM (MCF7; 2 days).

A few entries again:
For `CC1=C(C)C(=O)OC(C(C)(O)C2(O)CCC3(O)C4CC5OC56C(O)C=CC(=O)C6(C)C4CCC32C)C1` (centres unmarked), the IC50 was 1790 nM (MCF7; cell growth).
`Clc1ccccc1C(c1ccccc1)(c1ccccc1)n1cccn1`: “microglial activation and neurotoxicity” “inhibited” (microglia; inhibitor; concentration not given, added: amyloid-beta oligomers).
